# Assay results collected from several papers.
# Lines come from different studies, so protocols differ. ± marks the error that the study gave.
SMILES,assay,test system,conditions,scale,endpoint,value
Cc1cc(O)c(C=O)c2c1C(=O)Oc1c(CO)c(O)c3c(c1O2)C(O)OC3=O (stereo not drawn),copulatory behaviour test,"rat, male, streptozotocin-induced diabetes","10 mg/kg, day 63",,Mount latency,480 ± 35.2 s
COC(=O)C1OC(Oc2c(-c3ccccc3)oc3cc(O)c(O)c(O)c3c2=O)C(O)C(O)C1O (stereo not drawn),"ELISA, refers to: TNF-α","Balb/c mouse, serum","oral, 5 mg/kg, added: LPS",,serum concentration,183 pg/mL
CCOC(=O)c1cc2c(N)c(C(=O)OC)sc2nc1C,,Sprague-Dawley rats,"subcutaneous, 100 mg/kg every 8 h, long-term dosing",baseline: vehicle,urine urea concentration,decreased
O=c1[nH]c(N2CCC3(CC2)CN(CCO)c2cc(F)cc(F)c23)nc2c1CCCC2,qRT-PCR,"NOD-SCID mouse xenograft, xenograft tumour","intraperitoneal, dose not given, 4 h after last dose",,MYC mRNA level,decreased
COc1ccc2nc(C)ccc2c1Nc1sn(C)c(=O)c1C#N,,"mouse, paclitaxel neuropathy model",dose not given,,tail nerve conduction velocity,no effect
COc1c2c(cc3oc(C)cc(=O)c13)O[C@H](C(C)(C)O[C@@H]1O[C@H](CO)[C@@H](O)[C@H](O)[C@H]1O)C2,analgesia,mouse,"oral, 4 mg/kg, 1 h",,hot plate latency,8.63 ± 2.53 s
CC(C)[C@H](NC(=O)CN)C(=O)N[C@@H](CCCCN)C(=O)NCC(=O)N[C@@H](CC(=O)O)C(=O)N[C@@H](CCCCN)C(=O)NCC(=O)N[C@@H](CC(N)=O)C(=O)N1CCC[C@H]1C(=O)NCC(=O)N[C@@H](Cc1c[nH]c2ccccc12)C(=O)N1CCC[C@H]1C(=O)NCC(=O)N[C@@H](C)C(=O)N1CCC[C@H]1C(=O)O,,"K1735 M4 melanoma, mouse","100 µg/mL coating, peptide-coated plates",,spreading cells,70%
COc1ccc(C2CC(c3ccc(C)cc3)=Nc3ccccc3S2)cc1OC (stereo not drawn),,"Wistar rat, STZ-induced diabetes, serum","20 mg/kg, 28 days",,LDL cholesterol,104 mg/dL
CC[C@H]1[C@@H](O)[C@@H]2[C@H](CC[C@]3(C)[C@@H]([C@H](C)CCOS(=O)(=O)[O-])CC[C@@H]23)[C@@]2(C)CC[C@@H](O)C[C@@H]12.[Na+],histology,"ob/ob NASH mouse model, liver","oral, 10 mg/kg once daily, 8 weeks, scale 0 to 3",direction not given,inflammation score,1 ± 0.1
CC(C)(O)c1ccc(N2Cc3c(ccnc3-c3ccc(F)cc3OCC(F)(F)F)C2=O)cc1,refers to: glucosylceramide,"mouse, cerebral cortex",6 h,significant decrease,minimal effective dose,10 mg/kg
CC(=O)N[C@@H](CC1CCCCC1)C(=O)N[C@H]1CSSC[C@@H](C(=O)N[C@@H](CCCNC(=N)N)C(N)=O)NC(=O)[C@H](CC2CCCCC2)NC(=O)[C@H](CCCNC(=N)N)NC(=O)[C@H](CCCNC(=N)N)NC(=O)[C@H](CC2CCCCC2)NC(=O)[C@H](CC(C)C)NC(=O)[C@H](CCCNC(=N)N)NC(=O)[C@@H](NC(=O)[C@H](CC2CCCCC2)NC(C)=O)CSSC[C@@H](C(=O)N[C@@H](CCCNC(=N)N)C(N)=O)NC(=O)[C@H](CC2CCCCC2)NC(=O)[C@H](CCCNC(=N)N)NC(=O)[C@H](CCCNC(=N)N)NC(=O)[C@H](CC2CCCCC2)NC(=O)[C@H](CC(C)C)NC(=O)[C@H](CCCNC(=N)N)NC1=O,,mouse bilateral renal ischemia-reperfusion,"iv, 1 to 5 mg/kg, 24 h after injury, dosed 1 h before injury",baseline: vehicle,serum BUN and creatinine,decreased
C=C(c1ccc(C(=O)O)c(F)c1)c1cc2c(cc1C)C(C)(C)C=CC2(C)C,"RNA sequencing, refers to: Emr4 mRNA","rat, brain","dose not given, 24 h, single dose",baseline: vehicle,log2 fold change,0.7
CC(C)=CCCC(C)=CCc1cc(-c2coc3cc(OC4OC(C(=O)O)C(O)C(O)C4O)ccc3c2=O)ccc1O (stereo not drawn),"glucuronidation, substrate",mouse liver microsomes,,,Vmax,6120 ± 531 pmol/min/mg
COC(=O)N1c2ccc3c(nc(Cc4ccccc4)n3[C@@H]3CCC[C@@H](C(=O)O)C3)c2CC[C@@H]1C,,"mice, breast cancer PDX","oral, 50 mg/kg, 45 days, HER2+, TGI above 60%",,responding models,31%
CCCCCCOC(=O)Cc1c(C)n(C(=O)c2ccc(Cl)cc2)c2ccc(OC)cc12,hot plate test,BALB/c mice,"50 mg/kg, 90 min",,latency of nociceptive response,15.1 ± 1.27 s
O=C(O)C1OC(Oc2cccc(-c3nc(N4CCOCC4)c4oc5ncccc5c4n3)c2)C(O)C(O)C1O (stereo not drawn),glucuronide formation,human intestinal microsomes,,,Vmax,371 ± 12.3 pmol/min/mg
COc1ccc(-c2nnc(COc3cc(-c4nc5ccccc5s4)ccc3OC)o2)cc1OC,seizure protection,"albino mouse, scPTZ-induced seizure","ip, 0.5 h",,minimal effective dose,30 mg/kg
CC1SC(N/N=C2\c3ccccc3-c3nc4cc(F)ccc4nc32)=NC1=O (stereo not drawn),,"mouse, STZ-induced diabetes","oral, 25 mg/kg, day 3",,blood glucose,322 ± 24.7 mg/dL
C[C@@H](O)[C@@H]1NC(=O)[C@H](CCCCN)NC(=O)[C@@H](Cc2ccc(NC(N)=O)cc2)NC(=O)[C@H](Cc2ccc(NC(=O)[C@@H]3CC(=O)NC(=O)N3)cc2)NC(=O)[C@H](NC(=O)[C@H](Cc2ccc(Cl)cc2)NC(=O)CN2CCN(CC(=O)O)CCN(CC(=O)O)CCN(CC(=O)O)CC2)CSSC[C@@H](C(=O)N[C@H](Cc2ccc(O)cc2)C(N)=O)NC1=O [gallium-68 labelled],PET/CT,"human neuroendocrine tumour patients, all lesions",60 min,,SUVmean,10 ± 8
C[C@H](NC(=O)COC(=O)[C@H](C)NC(=O)CO)C(=O)O,,water,"pH 4, 50 °C",,depolymerization rate constant,0.027 h⁻¹
COc1ccc2c(c1)c(CC(=O)OCC(=O)OC(C)(C)C)c(C)n2C(=O)c1ccc(Cl)cc1,hot plate test,BALB/c mice,"50 mg/kg, 60 min",,latency of nociceptive response,15.8 ± 0.66 s
C[C@H](NC(=O)CCCCCNC(=S)Nc1ccc2c(c1)C(=O)OC21c2ccc(O)cc2Oc2cc(O)ccc21)C(=O)N[C@@H](C)C(=O)N1CCC[C@H]1C(=O)N[C@@H](CCC(=O)O)C(=O)N1CCC[C@H]1C(=O)N[C@@H](CCC(=O)O)C(=O)N[C@H](C(=O)NCC(=O)N[C@@H](CCC(=O)O)C(=O)O)[C@@H](C)O,Western blot,"mouse, liver ischaemia-reperfusion, liver","intravenous, 15 mg/kg",,Nrf2 protein level,increased
N#Cc1cnc2cc(OCC3CCNCC3)c(F)cc2c1Nc1cc(F)c(OCc2cccc(Cl)n2)cc1Cl,,"C57BL/6J mice, partial hepatectomy","5, 15 and 50 mg/kg twice daily, 72 h after hepatectomy, 70% partial hepatectomy",baseline: vehicle,liver to body weight ratio,increased
CC(C)(C)C(=O)NNC(=O)/C=C\n1cnc(-c2cc(C(F)(F)F)cc(C(F)(F)F)c2)n1,"refers to: NeuN, NRF2","C57BL/6J mouse EAE, spinal cord",dose not given,baseline: vehicle,NRF2 nuclear neurons,increased
CCCCCCCCCCCCCCCC(=O)NCCCC[C@H](N)C(=O)N[C@@H](CC(=O)O)C(=O)N[C@H](C(=O)N[C@@H](Cc1c[nH]cn1)C(=O)N[C@@H](Cc1ccccc1)C(=O)N[C@@H](CCCNC(=N)N)C(=O)N[C@H](C(=O)N[C@@H](Cc1ccccc1)C(=O)N[C@@H](CCCNC(=N)N)C(=O)N[C@@H](CO)C(=O)N[C@@H](Cc1c[nH]cn1)C(=O)N[C@@H](CO)C(=O)N[C@@H](CC(=O)O)C(=O)N[C@@H](Cc1ccc(O)cc1)C(=O)N[C@@H](CCCNC(=N)N)C(=O)N[C@@H](CCCNC(=N)N)C(=O)N[C@H](C(=O)O)[C@@H](C)CC)[C@@H](C)O)[C@@H](C)O,,"C57BL/6J mouse, MCD diet","intraperitoneal, 1.2 nmol/g, 3 weeks, 3 times weekly",,serum triglycerides,63.9 ± 10.5 mg/dL
C=C(c1cc(F)c(C(=O)O)c(F)c1)c1cc2c(cc1C)C(C)(C)CCC2(C)C,"RNA sequencing, refers to: Cyp26b1 mRNA","rat, brain","dose not given, 24 h, single dose",baseline: vehicle,log2 fold change,1.94
NCCCC[C@H](NC(=O)[C@H](Cc1ccc(O)cc1)NC(=O)[C@H](CCCCN)NC(=O)[C@H](Cc1c[nH]c2ccccc12)NC(=O)[C@H](Cc1ccccc1)NC(=O)[C@H](Cc1ccccc1)NC(=O)Cc1ccc(-c2ccccc2)cc1)C(=O)NCC(=O)N[C@@H](Cc1c[nH]cn1)C(=O)N1CCC[C@H]1C(=O)NCC(=O)NCC(=O)N1CCC[C@H]1C(=O)N[C@@H](CCC(N)=O)C(=O)N[C@@H](CC(=O)O)C(=O)N[C@@H](CC(=O)O)C(=O)N[C@@H](CC(=O)O)C(=O)N[C@@H](CC(=O)O)C(=O)N[C@@H](CC(=O)O)C(=O)N[C@@H](CC(=O)O)C(=O)O,TRAP staining,"bone marrow-derived macrophages, mouse","64 µM, added on day 5, stained day 6, added: RANKL",baseline: RANKL control,osteoclast number,decreased

# Excerpt of the above:
SMILES,assay,test system,conditions,scale,endpoint,value
C[C@@H](O)[C@@H]1NC(=O)[C@H](CCCCN)NC(=O)[C@@H](Cc2ccc(NC(N)=O)cc2)NC(=O)[C@H](Cc2ccc(NC(=O)[C@@H]3CC(=O)NC(=O)N3)cc2)NC(=O)[C@H](NC(=O)[C@H](Cc2ccc(Cl)cc2)NC(=O)CN2CCN(CC(=O)O)CCN(CC(=O)O)CCN(CC(=O)O)CC2)CSSC[C@@H](C(=O)N[C@H](Cc2ccc(O)cc2)C(N)=O)NC1=O [gallium-68 labelled],PET/CT,"human neuroendocrine tumour patients, all lesions",60 min,,SUVmean,10 ± 8
C[C@H](NC(=O)COC(=O)[C@H](C)NC(=O)CO)C(=O)O,,water,"pH 4, 50 °C",,depolymerization rate constant,0.027 h⁻¹
COc1ccc2c(c1)c(CC(=O)OCC(=O)OC(C)(C)C)c(C)n2C(=O)c1ccc(Cl)cc1,hot plate test,BALB/c mice,"50 mg/kg, 60 min",,latency of nociceptive response,15.8 ± 0.66 s
